Assay results of several laboratories.
Lines come from different studies, so protocols differ. ± gives the spread as reported.

NC1=N[N+](=Cc2c3ccccc3cc3ccccc23)[Ga-3]23([S]1)([S]C(N)=N[N+]2=Cc1c2ccccc2cc2ccccc12)[S]C(N)=N[N+]3=Cc1c2ccccc2cc2ccccc12 gave an IC50 of 55.4 ± 2.1 µM (CCD-18Co; 72 h).
CC1(C)CCC(CN2CCN(c3ccc(C(=O)NS(=O)(=O)c4ccc(NCC5COCCO5)c([N+](=O)[O-])c4)c(N4CCCOc5nc6[nH]ccc6cc54)c3)CC2)=C(c2ccc(Cl)cc2)C1 (centres unmarked) has an IC50 of 5e-05 µM (RS4-11; cell growth or viability, ATP luminescence; 24 h).
For Cc1cnc(Nc2cc(C)c(C)c(C)c2)nc1Nc1ccc2oc(=O)[nH]c2c1, the IC50 was 0.0214 µM (human CD4+ T cells; STAT6 phosphorylation, flow cytometry; with: IL-4).
COc1c(O)cc2oc3c(Br)c(O)c(CC=C(C)C)c(O)c3c(=O)c2c1CC=C(C)C has an IC50 of greater than 40 µM (SW480; cell growth or viability; 48 h).
The IC50 of COc1cccc(Cn2cc(COc3c(OC)ccc4cc5[n+](cc34)CCc3cc4c(cc3-5)OCO4)nn2)c1 is reported as 32.6 µM (SW1990; cell growth or viability, MTT).
CC(C)c1cccc(C(C)C)c1N1CCN(c2c(C(C)C)cccc2C(C)C)C1=[Se].[Cl][Ag] gave an IC50 of 3.5 ± 0.8 µM (human ovarian cancer cells; cell viability, MTT; 72 h).
The IC50 of COc1ccc(C(C)(O)C(C)(C)C(=O)O)cc1 (centres unmarked) is reported as 136 µM (Fem-X; cell growth or viability; 72 h).
For N#C/C(=C\c1cn(-c2ccccc2)nc1-c1ccc(F)cc1)c1nc2ccccc2[nH]1, the IC50 was 30.9 µM (SW1990; cell growth or viability, ATP luminescence; 72 h).
Cc1cc(C=O)cc(C)c1Oc1cc(Nc2ccc(C#N)cn2)nc2ccncc12 has an IC50 of greater than 126 µM (HuCC-A1; 48 h).
N=C(N/N=C/c1ccc2ccccc2c1)N/N=C/c1ccc2ccccc2c1 gave an IC50 of 122 µM (KP-4; cell growth or viability, crystal violet; 72 h).
With C=C[CH2][Pd-]([Cl])[Cl].Cc1cc(C)c(-n2c[n+](-c3c(C)cc(C)cc3C)c3c2-c2cccc4cccc-3c24)c(C)c1 the IC50 was 2.7 ± 0.6 µM (2008; cell growth, MTT; 72 h).
O=[N+]([O-])[O-].[NH3+][Pt-2]1([NH3+])[O]C(C(F)(F)F)=CC(c2ccccc2)=[O+]1 (centres unmarked) gave an IC50 of 1.6 µM (U2OS; cell growth or viability, MTT).
With O=c1[nH]c(=O)n([C@@H]2O[C@H](CO)[C@@H](O)[C@H](F)[C@H]2O)cc1F the IC50 was greater than 200 µM (Molt4/C8; cell growth or viability).
For N=C(N/N=C/c1ccc2ccc3cccc4ccc1c2c34)N/N=C/c1ccc2ccc3cccc4ccc1c2c34, the IC50 was 163 ± 24.5 µM (KP-4; cell growth, crystal violet; 72 h).
The IC50 of N=C(N)NCCC[C@H](N)C(=O)N[C@@H](CC(=O)N[C@@H](CC(=O)O)c1cccc2ccccc12)c1cccc2ccccc12 is reported as greater than 50 µM (MCF-7 (no HER2 overexpression)).
With C=CC(OC(C)=O)c1ccccc1 (centres unmarked) the IC50 was greater than 50 µM (HSC-4; MTT; 24 h).
OC[C@H]1[C@@H](O)[C@@H](O)CN1Cc1ccc(Br)cc1 gave an IC50 of 189 µM (U2OS; cell growth or viability, MTS; 72 h).
For CC(C)Cc1ccc(C(C)C(=O)[O][Pt]([NH2])([NH2])([Cl])([Cl])[O]C(=O)C(Cl)Cl)cc1 (centres unmarked), the IC50 was 0.14 µM (BCPAP; cell growth or viability, MTT; 72 h).
Cc1cc([C@H](C(=O)N2C[C@H](O)C[C@H]2C(=O)N[C@@H](CC(=O)N2CCC(N3CCC(C#Cc4ccc(C(=O)N[C@H]5C(C)(C)[C@H](Oc6ccc(C#N)c(Cl)c6)C5(C)C)cc4)CC3)CC2)c2ccc(-c3scnc3C)cc2)C(C)C)on1 has an IC50 of 0.235 µM (MDA-MB-453; cell growth or viability; 7 days).
With CC1CC(=O)NN=C1c1ccc(NC(=O)N2Cc3ccncc3C2)cc1 (centres unmarked) the IC50 was 0.00065 µM (MDA-MB-453; cell growth or viability, ATP luminescence).
For COc1ccc2cc3[n+](cc2c1OCc1cn(Cc2ccc([N+](=O)[O-])cc2)nn1)CCc1cc2c(cc1-3)OCO2, the IC50 was 54.2 µM (SW1990; cell growth or viability, MTT).
CC1=C2[O][Ru-]([Cl])[O+]=C2C=CN1CCCCCCCCCCCCN1C=CC2=[O+][Ru-]([Cl])[O]C2=C1C.Cc1ccc(C(C)C)cc1.Cc1ccc(C(C)C)cc1 has an IC50 of 2.5 µM (LCLC-103H; cell growth or viability, crystal violet; 96 h).
The IC50 of O=C(NO)c1ccc(Cn2sc3ccccc3c2=O)cc1 is reported as 1.8 µM (REH; cell growth or viability, ATP luminescence; 72 h).
O=C(Cc1ccc2ccccc2c1)N[C@H](Cc1ccccc1)C(=O)N[C@H](Cc1ccc(OP(=O)(O)O)cc1)C(=O)N[C@H](Cc1ccccc1)C(=O)N[C@H](Cc1ccc(OP(=O)(O)O)cc1)C(=O)O has an IC50 of 367 µg/mL (T98G; cell growth or viability, MTT).
The IC50 of NCCCCCCN1N=C(c2ccc(NC(=O)N3Cc4ccncc4C3)cc2)CC(c2cccc3ncccc23)C1=O (centres unmarked) is reported as less than 3e-05 µM (MDA-MB-453; cell growth or viability, ATP luminescence).
The IC50 of C#CCOc1ccc(C(=O)c2ccc(NC(=O)C(=O)NCCc3ccc(O)cc3)cc2)cc1 is reported as 0.05 µM (NCI-H1993; cell growth or viability).
For COC(=O)[C@H]1[C@H]2C[C@H]3O[C@@]4(CCN3C[C@H]2C[C@@H](OC(=O)c2cc(OC)c(OC)c(OC)c2)[C@@H]1OC)C(=O)Nc1cc(OC)c(-c2ccc(C)cc2)cc14, the IC50 was 3.71 µM (RS4-11; cell growth or viability, trypan blue; 72 h).
COc1ccc2cc3[n+](cc2c1OCc1cn(Cc2cccc(Br)c2)nn1)CCc1cc2c(cc1-3)OCO2 has an IC50 of 50.5 µM (SW1990; cell growth or viability, MTT).
With CCCCCCCC(=O)Oc1c(C)c(OC)c2c(c1C)OC(=O)[C@@H](CCCCCC)[C@]2(O)/C=C/c1ccccc1 (racemic) the IC50 was greater than 50 µM (FaDu; cell growth or viability, SRB; 72 h).
With CCCC(CCC)C(=O)[O][Pt]([NH2])([NH2])([Cl])([Cl])[O]C(=O)c1ccccc1OC(C)=O the IC50 was 0.97 µM (LoVo; cell growth or viability, MTT; 72 h).
CCOP(=O)(OCC)C(Cc1cc(F)c(F)c(F)c1)Nc1ccccc1 (centres unmarked) has an IC50 of 40.8 µM (U-118-MG; cell growth or viability, MTT; 48 h).
With COCC12CCC(OC)C34C5CC6(O)C(OC)C(=O)C(C5C6O)C(C(OC)C13)C4N(C)C2 (centres unmarked) the IC50 was 32.6 µM (HBE; cell growth or viability, MTT).
CCCCCCCC(=O)NCCNC(=O)[C@@]1(C)[C@H](O)CC[C@@]2(C)[C@H]1CC[C@]1(C)[C@@H]2C(=O)C=C2[C@@H]3[C@@H](C)[C@H](C)CC[C@]3(C)CC[C@]21C gave an IC50 of 8.28 µM (HBE; cell growth or viability, MTT; 48 h).
With COc1ccc(C[C@H]2COC(=O)[C@@H]2Cc2ccc(OCC(=O)Nc3ccc(C(=O)NO)cc3)c(OC)c2)cc1OC the IC50 was greater than 5 µM (Kasumi 1; cell growth or viability, CCK-8; 48 h).
For COC(=O)[C@@]1(C)C=C(C(=O)Nc2cccc(C(=O)Nc3ccc(Nc4nccc(-c5cccnc5)n4)c(C)c3)c2)C(=O)CC1, the IC50 was roughly 0.1 µM (SH-SY5Y MKK7 inducible; c-Jun Ser63 phosphorylation, inhibitor, HTRF, measured: phospho-c-Jun Ser63; 6 h, with: doxycycline).
For Cc1nc2ccccc2c(=O)n1N, the IC50 was 340 ± 12.1 µM (LoVo; cytotoxicity, LDH release; 24 h, 50% viability reduction).
For CCCCCC(=O)NCCNC(=O)[C@]1(C)[C@@H]2CC[C@]3(C)[C@H](C(=O)C=C4[C@@H]5[C@@H](C)[C@H](C)CC[C@]5(C)CC[C@]43C)[C@@]2(C)CC[C@H]1OC(C)=O, the IC50 was 12.7 µM (HBE; cell growth or viability, MTT; 48 h).
N[C@@H](CCC(=O)N[C@@H](CS[Se]Cc1ccc(-c2cc(C(F)(F)F)nn2-c2ccc(S(N)(=O)=O)cc2)cc1)C(=O)NCC(=O)O)C(=O)O gave an IC50 of 52.6 ± 3.8 µM (WM35 melanoma cells; cell viability, MTS; 24 h, radial stage).
CC(C)c1cccc(C(C)C)c1-n1c(Cl)c(Cl)n(-c2c(C(C)C)cccc2C(C)C)c1=[Se].[Cl][Au] has an IC50 of 3.9 µM (LoVo; cell growth or viability, MTT; 72 h).
With N#C/C(=C\c1cn(-c2ccccc2)nc1-c1ccc([N+](=O)[O-])cc1)c1nc2ccccc2[nH]1 the IC50 was 61.8 µM (SW1990; cell growth or viability, ATP luminescence; 72 h).
Cc1cc(N)c2cc(NC(=O)Nc3ccc4nc(C)cc(N)c4c3)ccc2n1 has an IC50 of 1.6 ± 0.04 µM (CHO wild type; FGF2 binding to heparan sulfate, inhibitor, flow cytometry; on ice, with: biotinylated FGF2 2.5 nM).
O=C1CCC(N2C(=O)c3ccc(N4CCC(C(=O)N5CCC(CCN6CCC(CNC(=O)c7cccc(-c8noc(C(F)(F)F)n8)c7)(c7nc(-c8ccccc8)cs7)CC6)CC5)CC4)cc3C2=O)C(=O)N1 (centres unmarked) gave an IC50 of 0.84 µM (NB-4; cell growth or viability, CCK-8; 5 days).
CCCCCC(=O)NCCNC(=O)[C@@]1(C)[C@H](O)CC[C@@]2(C)[C@H]1CC[C@]1(C)[C@@H]2C(=O)C=C2[C@@H]3[C@@H](C)[C@H](C)CC[C@]3(C)CC[C@]21C has an IC50 of 14.4 µM (HBE; cell growth or viability, MTT; 48 h).
The IC50 of [Cl][Cu-][c]1n(-c2c(C(c3ccccc3)c3ccccc3)cc(C(c3ccccc3)c3ccccc3)cc2C(c2ccccc2)c2ccccc2)c2c([n+]1-c1c(C(c3ccccc3)c3ccccc3)cc(C(c3ccccc3)c3ccccc3)cc1C(c1ccccc1)c1ccccc1)-c1cccc3cccc-2c13 is reported as greater than 50 µM (2008; cell growth, MTT; 72 h).
For C[C@@H](C(=O)Nc1ccc(Cn2cc(C(F)(F)F)ccc2=O)cc1)N(C)C, the IC50 was 310 ± 3.7 µM (NIH3T3; cell proliferation, CCK-8).
CCOP(=O)(OCC)C(Cc1c(F)c(F)c(Sc2ccc(OC)cc2)c(F)c1F)Nc1ccccc1 (centres unmarked) gave an IC50 of 33.2 µM (U-118-MG; cell growth or viability, MTT; 48 h).
COc1ccc(-c2cc(=O)c3c(O)cc(O[C@@H]4O[C@H](CO)[C@@H](O)[C@H](O)[C@H]4O)cc3o2)cc1OC has an IC50 of 28 ± 1.43 µM (HCT-116 p53-/- colon cancer; cytotoxicity, resazurin reduction; 72 h).

Excerpt of the above:
The IC50 of C#CCOc1ccc(C(=O)c2ccc(NC(=O)C(=O)NCCc3ccc(O)cc3)cc2)cc1 is reported as 0.05 µM (NCI-H1993; cell growth or viability).
For COC(=O)[C@H]1[C@H]2C[C@H]3O[C@@]4(CCN3C[C@H]2C[C@@H](OC(=O)c2cc(OC)c(OC)c(OC)c2)[C@@H]1OC)C(=O)Nc1cc(OC)c(-c2ccc(C)cc2)cc14, the IC50 was 3.71 µM (RS4-11; cell growth or viability, trypan blue; 72 h).
COc1ccc2cc3[n+](cc2c1OCc1cn(Cc2cccc(Br)c2)nn1)CCc1cc2c(cc1-3)OCO2 has an IC50 of 50.5 µM (SW1990; cell growth or viability, MTT).
With CCCCCCCC(=O)Oc1c(C)c(OC)c2c(c1C)OC(=O)[C@@H](CCCCCC)[C@]2(O)/C=C/c1ccccc1 (racemic) the IC50 was greater than 50 µM (FaDu; cell growth or viability, SRB; 72 h).
